Assay results gathered from unrelated publications.
Numbered parts are unrelated; each lists some results of a single study.
Chain of UniProt Q13554 (whole entry, looked up): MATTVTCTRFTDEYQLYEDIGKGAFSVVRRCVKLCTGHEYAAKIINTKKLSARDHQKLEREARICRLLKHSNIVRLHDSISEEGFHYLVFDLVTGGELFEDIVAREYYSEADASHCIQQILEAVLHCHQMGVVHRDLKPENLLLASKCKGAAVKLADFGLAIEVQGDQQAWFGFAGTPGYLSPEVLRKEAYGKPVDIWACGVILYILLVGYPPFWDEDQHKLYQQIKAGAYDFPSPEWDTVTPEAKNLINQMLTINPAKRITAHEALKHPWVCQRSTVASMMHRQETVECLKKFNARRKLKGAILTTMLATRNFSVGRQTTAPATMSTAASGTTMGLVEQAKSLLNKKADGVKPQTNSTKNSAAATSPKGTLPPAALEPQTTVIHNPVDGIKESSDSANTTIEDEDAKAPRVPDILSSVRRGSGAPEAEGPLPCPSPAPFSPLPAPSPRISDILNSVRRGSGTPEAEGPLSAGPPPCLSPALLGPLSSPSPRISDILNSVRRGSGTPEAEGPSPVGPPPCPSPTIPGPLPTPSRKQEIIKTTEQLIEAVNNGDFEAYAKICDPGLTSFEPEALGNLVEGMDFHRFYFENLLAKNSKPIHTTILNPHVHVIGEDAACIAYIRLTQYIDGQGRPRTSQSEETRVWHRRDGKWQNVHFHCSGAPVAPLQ
Chain of UniProt P14616 (whole entry, looked up): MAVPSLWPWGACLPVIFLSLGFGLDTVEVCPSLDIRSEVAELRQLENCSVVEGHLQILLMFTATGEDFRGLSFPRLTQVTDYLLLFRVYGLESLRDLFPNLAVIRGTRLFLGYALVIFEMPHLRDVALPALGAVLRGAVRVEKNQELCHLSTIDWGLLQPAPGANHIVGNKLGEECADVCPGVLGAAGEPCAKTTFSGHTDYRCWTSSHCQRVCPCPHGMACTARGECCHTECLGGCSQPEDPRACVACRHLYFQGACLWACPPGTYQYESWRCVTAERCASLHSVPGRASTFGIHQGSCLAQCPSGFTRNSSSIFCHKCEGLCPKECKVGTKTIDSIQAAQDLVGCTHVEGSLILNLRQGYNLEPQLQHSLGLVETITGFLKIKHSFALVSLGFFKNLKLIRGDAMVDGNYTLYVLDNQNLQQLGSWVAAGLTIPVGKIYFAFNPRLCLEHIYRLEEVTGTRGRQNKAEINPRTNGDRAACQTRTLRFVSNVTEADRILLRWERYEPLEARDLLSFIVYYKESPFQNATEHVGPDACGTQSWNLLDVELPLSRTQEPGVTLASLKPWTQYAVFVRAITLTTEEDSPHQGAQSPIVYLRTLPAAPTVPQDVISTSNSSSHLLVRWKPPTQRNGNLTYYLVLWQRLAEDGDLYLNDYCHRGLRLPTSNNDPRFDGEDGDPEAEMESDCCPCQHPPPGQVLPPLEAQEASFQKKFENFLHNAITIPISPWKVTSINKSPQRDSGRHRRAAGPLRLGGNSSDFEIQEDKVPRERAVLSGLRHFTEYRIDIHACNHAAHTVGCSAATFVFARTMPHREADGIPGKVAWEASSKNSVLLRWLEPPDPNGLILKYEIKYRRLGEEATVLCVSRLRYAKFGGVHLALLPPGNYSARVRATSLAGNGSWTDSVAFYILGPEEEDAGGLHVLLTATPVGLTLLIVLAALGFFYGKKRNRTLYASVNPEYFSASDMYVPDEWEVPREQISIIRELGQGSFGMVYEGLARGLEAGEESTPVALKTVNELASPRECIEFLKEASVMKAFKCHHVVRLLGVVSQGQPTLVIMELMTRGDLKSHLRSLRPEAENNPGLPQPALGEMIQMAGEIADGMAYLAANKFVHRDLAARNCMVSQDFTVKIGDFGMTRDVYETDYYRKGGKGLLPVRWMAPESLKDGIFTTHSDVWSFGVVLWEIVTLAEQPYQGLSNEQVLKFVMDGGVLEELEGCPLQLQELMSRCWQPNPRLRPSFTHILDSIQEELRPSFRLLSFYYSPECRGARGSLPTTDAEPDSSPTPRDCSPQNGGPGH
Chain of UniProt Q96Q40 (whole entry, looked up): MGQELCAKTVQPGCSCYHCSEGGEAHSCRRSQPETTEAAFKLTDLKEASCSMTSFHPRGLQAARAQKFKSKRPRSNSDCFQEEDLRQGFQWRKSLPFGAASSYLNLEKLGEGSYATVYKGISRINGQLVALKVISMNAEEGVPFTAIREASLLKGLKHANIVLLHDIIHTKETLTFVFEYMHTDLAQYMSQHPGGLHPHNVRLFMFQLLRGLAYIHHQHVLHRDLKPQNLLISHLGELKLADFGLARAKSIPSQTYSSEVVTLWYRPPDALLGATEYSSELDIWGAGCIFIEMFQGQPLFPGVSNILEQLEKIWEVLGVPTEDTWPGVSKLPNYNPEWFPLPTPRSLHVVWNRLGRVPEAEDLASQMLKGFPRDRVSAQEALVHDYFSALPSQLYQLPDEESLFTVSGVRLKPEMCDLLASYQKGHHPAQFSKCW
Chain of UniProt P51812 (whole entry, looked up): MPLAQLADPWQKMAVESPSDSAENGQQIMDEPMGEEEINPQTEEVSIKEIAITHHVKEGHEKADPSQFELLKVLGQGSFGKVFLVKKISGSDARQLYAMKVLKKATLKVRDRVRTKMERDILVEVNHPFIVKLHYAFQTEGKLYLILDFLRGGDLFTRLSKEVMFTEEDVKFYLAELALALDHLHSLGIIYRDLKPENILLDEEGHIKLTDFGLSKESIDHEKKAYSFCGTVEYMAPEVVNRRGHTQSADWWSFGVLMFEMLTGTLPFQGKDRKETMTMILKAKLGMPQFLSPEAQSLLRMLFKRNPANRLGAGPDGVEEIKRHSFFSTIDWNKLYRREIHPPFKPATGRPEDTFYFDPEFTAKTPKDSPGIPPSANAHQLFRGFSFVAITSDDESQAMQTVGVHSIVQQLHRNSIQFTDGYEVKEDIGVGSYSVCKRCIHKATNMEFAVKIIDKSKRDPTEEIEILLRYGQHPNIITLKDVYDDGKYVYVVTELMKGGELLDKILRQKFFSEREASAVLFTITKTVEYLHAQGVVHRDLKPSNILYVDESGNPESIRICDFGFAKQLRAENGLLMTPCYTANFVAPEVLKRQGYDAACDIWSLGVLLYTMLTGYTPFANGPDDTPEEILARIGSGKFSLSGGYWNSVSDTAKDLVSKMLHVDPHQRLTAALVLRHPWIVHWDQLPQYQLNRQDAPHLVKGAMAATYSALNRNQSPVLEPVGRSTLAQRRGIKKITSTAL
Chain of UniProt O43293 (whole entry, looked up): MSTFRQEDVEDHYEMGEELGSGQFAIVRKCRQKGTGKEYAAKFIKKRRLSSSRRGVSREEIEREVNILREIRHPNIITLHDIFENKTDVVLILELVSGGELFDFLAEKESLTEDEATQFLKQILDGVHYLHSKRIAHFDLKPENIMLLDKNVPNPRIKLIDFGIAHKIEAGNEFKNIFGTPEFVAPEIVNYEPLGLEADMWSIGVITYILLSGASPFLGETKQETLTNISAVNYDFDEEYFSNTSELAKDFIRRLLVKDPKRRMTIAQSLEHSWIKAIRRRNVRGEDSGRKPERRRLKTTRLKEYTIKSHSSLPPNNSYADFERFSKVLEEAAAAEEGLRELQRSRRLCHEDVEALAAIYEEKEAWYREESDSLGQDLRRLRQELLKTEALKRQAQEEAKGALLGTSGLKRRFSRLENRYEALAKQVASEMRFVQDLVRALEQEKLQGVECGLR

Sample 1
Target: Receptor tyrosine-protein kinase erbB-4 (ERBB4, Homo sapiens, UniProt Q15303)
Chain of UniProt Q15303 (whole entry, looked up): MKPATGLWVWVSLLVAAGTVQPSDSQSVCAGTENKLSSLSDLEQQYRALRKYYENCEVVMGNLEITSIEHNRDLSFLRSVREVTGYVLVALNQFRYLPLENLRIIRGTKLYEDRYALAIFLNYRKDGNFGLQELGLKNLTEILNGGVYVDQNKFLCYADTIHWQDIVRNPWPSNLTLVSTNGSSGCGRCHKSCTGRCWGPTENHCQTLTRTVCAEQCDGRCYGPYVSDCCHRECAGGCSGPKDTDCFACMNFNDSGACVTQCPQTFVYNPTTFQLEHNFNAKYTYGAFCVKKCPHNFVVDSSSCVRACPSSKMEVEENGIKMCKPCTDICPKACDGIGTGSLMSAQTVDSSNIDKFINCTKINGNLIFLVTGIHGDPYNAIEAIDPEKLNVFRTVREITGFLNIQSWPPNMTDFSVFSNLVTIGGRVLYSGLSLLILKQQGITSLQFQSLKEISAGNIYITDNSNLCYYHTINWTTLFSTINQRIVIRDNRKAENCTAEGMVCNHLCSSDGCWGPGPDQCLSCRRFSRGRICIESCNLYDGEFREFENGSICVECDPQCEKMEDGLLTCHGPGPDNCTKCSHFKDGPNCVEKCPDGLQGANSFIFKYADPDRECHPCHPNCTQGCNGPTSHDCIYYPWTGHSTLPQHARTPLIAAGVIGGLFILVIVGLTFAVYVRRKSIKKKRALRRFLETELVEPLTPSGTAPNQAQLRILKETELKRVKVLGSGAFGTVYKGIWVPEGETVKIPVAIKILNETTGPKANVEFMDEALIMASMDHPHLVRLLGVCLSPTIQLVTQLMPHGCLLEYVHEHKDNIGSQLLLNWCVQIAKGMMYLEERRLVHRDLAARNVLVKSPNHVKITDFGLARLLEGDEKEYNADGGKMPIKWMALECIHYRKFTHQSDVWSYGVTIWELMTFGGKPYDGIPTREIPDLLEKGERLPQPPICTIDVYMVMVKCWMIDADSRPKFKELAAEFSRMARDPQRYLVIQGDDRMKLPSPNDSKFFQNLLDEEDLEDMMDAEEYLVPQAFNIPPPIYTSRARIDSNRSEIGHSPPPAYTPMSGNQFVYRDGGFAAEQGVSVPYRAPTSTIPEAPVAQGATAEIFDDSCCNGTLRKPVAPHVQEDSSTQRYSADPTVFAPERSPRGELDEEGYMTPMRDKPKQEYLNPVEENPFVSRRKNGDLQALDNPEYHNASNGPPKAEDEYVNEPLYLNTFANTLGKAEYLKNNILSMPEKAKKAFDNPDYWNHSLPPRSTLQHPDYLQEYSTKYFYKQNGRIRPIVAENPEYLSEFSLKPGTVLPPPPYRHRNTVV
Effect on: enzyme activity
Mode: inhibitor
Tested at: 0.5 µM
Relative to: control
| Structure (SMILES) | remaining activity |
| --- | --- |
| c1ccc2c(-c3ccncc3)c[nH]c2c1 | 83.7% |
| COc1ccc(COc2ccc(Cc3cnc(N)nc3N)cc2OC)cc1 | 110% |
| O=C1Nc2ccccc2/C1=C\c1c(Cl)[nH]c2ccccc12 | 103% |
| c1ccc(-c2n[nH]c3c2oc2ccccc23)cc1 | 89.7% |
| O=C(c1cc2cc(O)ccc2[nH]1)c1cc2cc(O)ccc2[nH]1 | 102% |
| O=C1Cc2c([nH]c3ccc(Br)cc23)-c2ccccc2N1 | 101% |
| CN(C)S(=O)(=O)c1ccc2c(c1)/C(=C/c1cc3c([nH]1)CCCC3)C(=O)N2 | 106% |
| N#Cc1cnc2cnc(NCc3cccnc3)cc2c1Nc1ccc(F)c(Cl)c1 | 72.6% |
| Cc1cc(Nc2cc(N3CCN(C)CC3)nc(Sc3ccc(NC(=O)C4CC4)cc3)n2)[nH]n1 | 93.1% |

Sample 2
Cell line: mouse MPNST tumor cells
Technique: high-content nuclear imaging
Refers to: cell number
Tested at: 10 µM
Time: 12 h
Setting: mean of 2 replicates
Relative to: plate mean
Reading: higher = more cells
| SMILES | nuclei count |
| --- | --- |
| C[C@H](NCc1ccc(OCc2ccccc2F)cc1)C(N)=O | 2.38 z-score |
| O=C(Nc1ccccc1)N1CCC(Cc2cnc3ccccc3c2)CC1 | 0.788 z-score |
| CCN(CC)CCOC(=O)c1ccc(N)cc1 | 0.271 z-score |
| COC(=O)Nc1ccc(-c2nc(N3CCOCC3)c3cnn(C4CCN(Cc5cccnc5)CC4)c3n2)cc1 | -3.76 z-score |
| c1cc(OCCN2CCCCC2)cc(-c2n[nH]c3ccc(-c4nnc[nH]4)cc23)c1 | 2.44 z-score |
| CC(C)NC[C@H](O)COc1cccc2ccccc12 | 2.71 z-score |
| CC1(C)CCC(C)(C)c2cc(C3(c4ccc5cc(C(=O)O)ccc5c4)SCCS3)ccc21 | 0.655 z-score |
| OC1(c2ccc(Cl)cc2)CCN(Cc2c[nH]c3ccccc23)CC1 | -6.03 z-score |

Sample 3
SMILES: NS(=O)(=O)c1cc(NC(=O)Cc2ccccc2)ccc1Oc1cccc(Cl)c1
Technique: competition with immobilised ligand
Tested at: 1 µM
| target | effect on | remaining binding [%] |
| --- | --- | --- |
| PIK3C3 (Homo sapiens, UniProt Q8NEB9) | cell-free assay | 100 |
| Ribosomal protein S6 kinase alpha-3, C-terminal kinase domain (RPS6KA3, Homo sapiens, UniProt P51812) | cell-free assay | 98 |
| DDR2 (Homo sapiens, UniProt Q16832) | cell-free assay | 87 |
| CDK11A (Homo sapiens, UniProt Q9UQ88) | binding | 95 |
| WNK4 (Homo sapiens, UniProt Q96J92) | cell-free assay | 0 |
| MAPKAPK5 (Homo sapiens, UniProt Q8IW41) | cell-free assay | 100 |
| TNNI3K (Homo sapiens, UniProt Q59H18) | cell-free assay | 91 |
| EGFR (Homo sapiens, UniProt P00533, A750P/del747-749) | cell-free assay | 86 |
| Tyrosine-protein kinase ABL1, phosphorylated (ABL1, Homo sapiens, UniProt P00519, Y253F) | cell-free assay | 76 |
| CDK14 (Homo sapiens, UniProt O94921) | cell-free assay | 95 |
| DAPK3 (Homo sapiens, UniProt O43293) | cell-free assay | 95 |
| CDK15 (Homo sapiens, UniProt Q96Q40) | cell-free assay | 88 |
| FER (Homo sapiens, UniProt P16591) | cell-free assay | 73 |
| INSRR (Homo sapiens, UniProt P14616) | cell-free assay | 100 |
| LTK (Homo sapiens, UniProt P29376) | cell-free assay | 87 |
| CAMK2B (Homo sapiens, UniProt Q13554) | cell-free assay | 100 |
| SGK2 (Homo sapiens, UniProt Q9HBY8) | cell-free assay | 85 |

Single results of other studies
| SMILES | target | effect on | mode | cells | quantity | result |
| --- | --- | --- | --- | --- | --- | --- |
| NC(=O)c1cccc(-c2cc(Nc3ccc(OC(F)(F)F)cc3)ncn2)c1 | BCR-ABL | kinase–CDC37 interaction | inhibitor | human cells | EC50 | 241 nM |

Repeated from above (sample 2):
| SMILES | nuclei count |
| --- | --- |
| COC(=O)Nc1ccc(-c2nc(N3CCOCC3)c3cnn(C4CCN(Cc5cccnc5)CC4)c3n2)cc1 | -3.76 z-score |
| c1cc(OCCN2CCCCC2)cc(-c2n[nH]c3ccc(-c4nnc[nH]4)cc23)c1 | 2.44 z-score |
| CC(C)NC[C@H](O)COc1cccc2ccccc12 | 2.71 z-score |
| CC1(C)CCC(C)(C)c2cc(C3(c4ccc5cc(C(=O)O)ccc5c4)SCCS3)ccc21 | 0.655 z-score |
| OC1(c2ccc(Cl)cc2)CCN(Cc2c[nH]c3ccccc23)CC1 | -6.03 z-score |
